Published values from different studies.
Compare with care: the assays were run in different laboratories. Converted amounts (≈) assume the structure as drawn.

Structure (SMILES) | target or system | assay | test system | setting | scale | endpoint | value
CCCCCCCCC(=O)NCc1ccc(O)c(OC)c1 | mAb 5-3H1 | antibody binding, indirect competitive ELISA | – | with: coating antigen 3-OVA | – | IC50 | 0.243 µg/mL (≈ 0.828 µM)
C[C@@](O)(C(F)F)[C@H](NC(=O)c1ccc(C#CC#CC2CC2)cc1)C(=O)NO | Burkholderia cepacia | agar dilution | clinical isolates | – | – | MIC50 | 0.064 µg/mL (≈ 0.17 µM)
CC[C@H](C)[C@H](NC(=O)[C@H](CCCNC(=N)N)NC(=O)[C@H](CCCCN)NC(=O)[C@H](CC(C)C)NC(=O)[C@H](CC(C)C)NC(=O)CN)C(=O)N[C@@H](CCCCN)C(=O)N[C@H](C(=O)N[C@@H](CC(C)C)C(=O)N[C@@H](CC(C)C)C(=O)NCCCC[C@H](NC(=O)[C@H](CC(C)C)NC(=O)[C@H](CC(C)C)NC(=O)[C@@H](NC(=O)[C@H](CCCCN)NC(=O)[C@@H](NC(=O)[C@H](CCCNC(=N)N)NC(=O)[C@H](CCCCN)NC(=O)[C@H](CC(C)C)NC(=O)[C@H](CC(C)C)NC(=O)CN)[C@@H](C)CC)[C@@H](C)O)C(N)=O)[C@@H](C)O | Klebsiella pneumoniae | checkerboard | ATCC 700603 | with: polymyxin B | – | FIC index | 0.5
CC(=N)N1CC23C4CCC5C4C4C2CCC4C53C1 | Influenza A virus | viral replication | MDCK, H3N2 A/HK/7/87 | – | – | EC50 | > 100 µM
Cc1ccccc1N1C(=O)/C(=C/c2ccc(OCc3cccc(C(=O)O)c3)cc2)C(=O)NC1=S | LYP (PTPN22), human | immunoblot | Jurkat TAg | 0 or 3 min, with: TCR stimulation | – | lowest effective concentration | 0.4 µM
N=C(N)Nc1ccc(-c2nc3ccc(-c4ccc5nc(-c6ccc(NC(=N)N)cc6)[nH]c5c4)cc3[nH]2)cc1 | – | – | FVB mouse, wild type | intraperitoneal, 40 mg/kg, 7 days | – | Clcn1 exon 7 splicing | no effect
CC/C=C\C/C=C\C/C=C\C/C=C\C/C=C\C/C=C\CCC(=O)Nc1ccn(C2OC(CO)C(O)C2(F)F)c(=O)n1 (stereo not shown) | A498 | NCI60 screen | – | – | – | CC50 | 51.9 µM
CC[C@H](C)[C@H](NC(=O)[C@@H](NC(=O)[C@H](CC(=O)O)NC(C)=O)[C@@H](C)O)C(=O)N[C@@H](CCCNC(=N)N)C(=O)N[C@@H](CC(C)C)C(=O)N[C@@H](CC(C)C)C(=O)N[C@@H](Cc1ccccc1)C(=O)N[C@@H](CCC(N)=O)C(=O)N[C@@H](CC(C)C)C(=O)N[C@@H](CCSC)C(=O)N[C@@H](CCCNC(=N)N)C(=O)N1CCC[C@H]1C(=O)N1CCC[C@H]1C(=O)N[C@@H](CC(N)=O)C(=O)N[C@@H](CCSC)C(=O)N[C@H](C(=O)N1CCC[C@H]1C(=O)N[C@@H](C)C(=O)N[C@H](C(=O)N[C@@H](CC(N)=O)C(=O)N[C@@H](C)C(N)=O)C(C)C)[C@@H](C)O | – | item: HA-51 tetramer | antigen-experienced tetramer+ CD4 T cells, healthy adults, HLA-DRB1*0101 | dose not given | – | α4β7− CCR9+ cells | 11.8%
CCN(Cc1ccccc1)C(=O)CCc1nc(CN2CCN(C(=O)Cc3ccc(OC)c(OC)c3)CC2)no1 | – | cold withdrawal threshold, cold plate | mouse CCI model | 1 mg/kg, 4 °C, dosing from day 11 | – | onset day | 11 days
CN1CC23C4C5CC5C5C4C4C2C2CC2C4C53C1 (stereo not shown) | Influenza A virus | viral replication, inhibitor | H3N2 | – | – | EC50 | > 100 µM
CCCCCc1cc(OC(=O)C(NC(=O)CCC(=O)O)C(C)C)c2c(c1)OC(C)(C)C1CCC(C)=CC21 (stereo not shown) | – | – | rabbit, α-chymotrypsin-induced glaucoma | concentration not given, 2 h | reference: baseline | intraocular pressure | 54%
O=C(O)CC[C@H](NC(=O)N[C@@H](CCCCNC(=O)[C@H](Cc1ccc2ccccc2c1)NC(=O)[C@H]1CC[C@H](CNC(=O)CN2CCN(CC(=O)O)CCN(C(CCC(=O)NCCC[P+](c3ccccc3)(c3ccccc3)c3ccccc3)C(=O)O)CCN(CC(=O)O)CC2)CC1)C(=O)O)C(=O)O (stereo partly shown) [terbium-161 labelled] | PC-3 PIP (PSMA+) | – | – | concentration not given | – | surface-bound activity | 62.7%
N=C(N)N1CC23C4C=CC5C4C4C2C=CC4C53C1 | Influenza A virus | viral replication | MDCK, H1N1 A/PR/8/34 | – | – | EC50 | > 100 µM

Excerpt of the above:
Structure (SMILES) | target or system | assay | test system | setting | scale | endpoint | value
CC/C=C\C/C=C\C/C=C\C/C=C\C/C=C\C/C=C\CCC(=O)Nc1ccn(C2OC(CO)C(O)C2(F)F)c(=O)n1 (stereo not shown) | A498 | NCI60 screen | – | – | – | CC50 | 51.9 µM
